Published values pooled from the literature.
Parts stem from different laboratories: compare values within a part only. Positions count from the first letter of the parent shown.

Block 1 — technique: RNA Bind-n-Seq; molecule type: RNA; medium: in vitro; concentration: not given; reference: input RNA pool; direction: higher = stronger binding; measurement: bound/input enrichment
Target: RING finger protein unkempt homolog, zinc fingers 1-6, GST-SBP tag (UNK, Homo sapiens, UniProt Q9C0B0, residues 30-357)
Sequence of UniProt Q9C0B0 (30-357, looked up): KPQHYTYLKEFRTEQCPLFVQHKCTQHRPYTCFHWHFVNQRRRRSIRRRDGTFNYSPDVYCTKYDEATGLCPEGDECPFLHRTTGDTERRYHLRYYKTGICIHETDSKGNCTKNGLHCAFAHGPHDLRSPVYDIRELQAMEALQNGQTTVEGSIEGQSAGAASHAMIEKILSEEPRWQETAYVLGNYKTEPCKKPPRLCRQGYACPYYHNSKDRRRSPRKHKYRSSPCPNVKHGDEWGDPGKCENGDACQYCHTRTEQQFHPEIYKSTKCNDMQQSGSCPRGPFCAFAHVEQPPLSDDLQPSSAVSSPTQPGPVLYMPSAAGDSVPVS
Setting: RNA with constant flanks, human-mouse chimeric sites, ends assumed
Shared flanks, not repeated: GGGAGUUCUACAGUCCGACGAUC … CAACAGAGGAUUGAGCAUCA
UCUUUAAAAAAAAAAUUACCUUUUCUGACAGUGCUUUCCCUCCCAUAGAUCCACGUUCAAGCUCAAAGAGCAAAGGCUCCGCAAACAGCUCAAACAUCUGAUGAAGAAAGAUUUCUGAGA: 0.987 ratio
AGAGAUAAGACAUCCAGGAACAUGCGAGGCUCCCGGAUGAAUGGACUGCCUAGCCCCACUCACAGCGCCCACUGUAGCUUCUACAGAACCAGAACCUUGCAGGCACUGAGUAAUGAGAAG: 0.137 ratio
UGGCGCCUCCCAUUUUUGUUUUUAAAUUUAAGUGUAUUUUUAUAAGAUACAUGUAUUUACAAUUGAGCUUUUGUUACAUAAUGCUGAAAUGCUACUGGAGAUUAUGAAAAAUGUUUCAAU: 0.673 ratio
AAAGAGAAAGCUAAAACACUAAUAGAGAAGAGGAUUGGCAAAGAGAAUUUCAUAGAGAAACUAGGAUUUAUUAGCAAACAUGAGUUAUAUUCCAGAGCGUCUCAGAAAACCCCAGCCAAC: 5.59 ratio
UAUAUCACCAAUGUCCUACAAAAUCCUGACUUGGCUCUGAGAAUGGCUGUGCGGAACAACUUAGCUGGUGCUGAAGAACUCUUUGCCCGGAAAUUUAAUGCUCUUUUCGCCCAGGGAAAC: 0.279 ratio
AGAAUCUUGGGACUGUUUUACUUAAUUGGUCAUUGAUAGCUUAACAAACAUGGAGAUAAGAUUAGAAGUUUUGACAUCAACAGGUAUUAAGCAGAAAAAACCAUGGCCCAGAGUAUCCUG: 0.286 ratio
AAAGAGUGGAUAGAGUGUGCACAUGGAAUCGGUGGGACCCGGGCGAAAAAGGAGUGCAAGAUAGAGUAUGAUGAUUUCGAAGAGUGCUUGCUUCGGUACAAAACGAUGAGGCGAAUGCAU: 0.927 ratio
UUAUCCAAGACUCAACGAAAGACUCCAACCGUUAUUCAUAAACAUUAUCAAAUUCAUCGGAUUCGACAUUUUUAUAUGAGAAAAGUCAAAUUUACUCAACAGAAUUACCAUGAUAGACUG: 0.789 ratio
GCUCCUCCCCGCUCUGCAGCCUGGGGACACUGGGCUGCAUUUUUUUUCCAGCUUUCUUUUAAAACUCUAUAUUUUUUUGUAUCCCGUGACAUUUCAUUUUUUUUAAAUAGUGUAUUUUUU: 21 ratio
CCCCAAUACCAUUUGCAGGUCUGGAACUGCACUCUCUUUUUUAAAAAAUAUGCAUAUAUUUUAGGGCUGUAGAUUUACUUUCCUAUUUUUGUUUUUCAUUGCUGACUUUUGAGCACAGAA: 1.12 ratio
CAGGGCAUUAUUUCUCGUGCUGUUAGACACCUGUUCAAGAGUAUUGAUGAGAAAAAGACCUCAGCGAUUAAAAACGGGCUUCCUGCUCCUGAAUUCAAAGUGAAUGCCCAGUUCCUAGAG: 0.101 ratio

Block 2 — technique: protein binding microarray; molecule type: double-stranded DNA, one strand shown; medium: in vitro; concentration: not given; reference: not given; direction: higher = stronger binding; measurement: E-score
Target: Histone acetyltransferase KAT6A, winged helix 2, GST fusion (KAT6A, Homo sapiens, UniProt Q92794, residues 85-181)
Setting: 8-mer, flanks averaged, mean of 2 arrays, mostly near background
Target sequence (chain): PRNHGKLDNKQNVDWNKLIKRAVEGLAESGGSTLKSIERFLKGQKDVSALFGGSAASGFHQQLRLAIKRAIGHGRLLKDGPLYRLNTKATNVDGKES
CCCCCGTA: -0.0895
ATTGGTTA: 0.11
CGCTCGTC: 0.11
CCACTATA: -0.0693
ACGACAGT: 0.00596
CAAGATTA: 0.033
AATTACGT: -0.23
AACCGATT: -0.059
AGTTATCG: 0.0429
GGACGGCC: 0.147
GCACCAAC: 0.182
ACTGGTCG: -0.192
CGCGCCTA: 0.0801
ATGATCTA: 0.145
CATCATTC: -0.163
CTAGAATA: -0.0646
CTTTGGCC: -0.0815
TCAAGAAA: 0.223
AGCCACGA: 0.0198
ACCACACG: -0.0249
GCGCCTAC: 0.0512

Block 3 — technique: RNA Bind-n-Seq; molecule type: RNA; medium: in vitro; concentration: 200 nM; setting: whole 134-nt RNA, ends assumed; together with: 150 mM LiCl; reference: input library; direction: higher = stronger binding; measurement: log2 enrichment; each molecule: 7-deaza-guanosine replaces G
Target: Ras GTPase-activating protein-binding protein 1, full length (G3BP1, Homo sapiens, UniProt Q13283)
Sequence of UniProt Q13283 (whole entry, looked up): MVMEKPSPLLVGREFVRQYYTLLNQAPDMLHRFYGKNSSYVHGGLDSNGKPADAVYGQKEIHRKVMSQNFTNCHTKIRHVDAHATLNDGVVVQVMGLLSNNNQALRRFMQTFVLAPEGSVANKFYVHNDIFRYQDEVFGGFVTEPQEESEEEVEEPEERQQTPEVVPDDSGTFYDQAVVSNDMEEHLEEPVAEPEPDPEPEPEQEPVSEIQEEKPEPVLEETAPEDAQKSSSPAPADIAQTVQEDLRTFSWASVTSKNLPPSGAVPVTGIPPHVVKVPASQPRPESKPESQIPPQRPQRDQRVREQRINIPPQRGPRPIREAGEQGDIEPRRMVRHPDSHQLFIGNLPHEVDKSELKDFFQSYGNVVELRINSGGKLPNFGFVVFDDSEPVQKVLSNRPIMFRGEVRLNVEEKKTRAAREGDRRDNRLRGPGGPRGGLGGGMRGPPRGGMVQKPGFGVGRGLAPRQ
Shared flanks, not repeated: GGGAGUUCUACAGUCCGACGAUC … UGGAAUUCUCGGGUGUCAAGG
UAACUUUAGAGGAGGAUCUGAUGGAUAUGGCAGUGGACGUGGAUUUGGGGACGGCUAUAAUGGGUAUGGAGGAGGACCUGGAGGUGGCAA: 0.00479
AAGUCCUGUGCUACACAUCGUAUGUACCGAAUCGGGGUUUGGGGAGGGGAAAGGGGAAAGUAUUAUGUUACGCCGUUCGGAUCUGCACUU: 0.0467
AGUCCUGUGCUACACAUCGUAUGUACCGAAUCGGGAAAAAGGGAAAGGGUUUUUGGGAAAGUAUUAUGUUACGCCGUUCGGAUCUGCACU: -1.82
UCCUGUGCUACACAUCGUAUGUACCGAAUCGGGGUGGGGAAAAAGGGGUUUUUUUGGGGAAAGUAUUAUGUUACGCCGUUCGGAUCUGCA: 0.249
UGGCCCUGGUGGCAUGCGGGGAGGAAGAGGUGGCCUCAUGGAUCGUGGUGGUCCCGGUGGAAUGUUCAGAGGUGGCCGUGGUGGAGAGAG: 0.605
UGUAGAAAAGGCACUGGACUAACACUUGGCUGUAUCUUGUAACAGGCAUGUUAUGUUACCCAGAGAACUUUCCAAACAAGUACCUAAAAC: 1.11
UGGCCCUGGUGGCAUGCGGGGAGGAAGAGGUGGCCUCAUGGAUCGUGGUGGUCCCGGUGGAAUUUUCAGAGGUGGCCGUGGUGGAGACAG: 0.379
GUCCUGUGCUACACAUCGUAUGUACCGAAUCGGUUUUUGGGUUUUUGGGUUUUUGGGGAAAGUAUUAUGUUACGCCGUUCGGAUCUGCAC: -0.325
CUGUGCUACACAUCGUAUGUACCGAAUCGGGGUUUGGGGUUUUUUUGGGGUUUUUUUGGGGAAAGUAUUAUGUUACGCCGUUCGGAUCUG: 1.45
GUCCUGUGCUACACAUCGUAUGUACCGAAUCGGGGAGGGGAAAAAAAGGGGUUUGGGGAAAGUAUUAUGUUACGCCGUUCGGAUCUGCAC: -0.493
UGGGAGGUGGAUUUUGUUUAUUUUUUUACCUCAUUUCCAGGGGUGGGAAUUUUUUUUUAAUAUGUGUCAUGAAUAAAGUUGUUUUUGAAA: -0.46

Block 4 — organism: Saccharomyces cerevisiae; observed: binding; technique: yeast competitive growth sequencing; molecule type: peptide; strain: cyclin D2-Cln2 fusion strain; setting: peptide tiling library; direction: direction not given; measurement: enrichment score
QDYERRLLRQIVIQNE: -0.609
TSSAQRRLEIPSGGAD: -2.01
RSLKLDGLLEEN: -0.596
ALLRRLQDVANDRGSH: 1.87
VLLKRLQDVVSERANH: 2.05
CFRCLLFSFSGRSGVE: -1.78
RVSGLLSWTLSRVLWL: -1.47
IQKKLRFEDTLEFVGF: -0.548
LAKRALKYTD: -0.661

Block 5 — technique: DHFR PCA, deep sequencing; medium: yeast; together with: (+)-ABA 0.11 µM; reference: wild-type fitted maximum; direction: higher = stronger binding; measurement: relative binding score
Target: ABI1, truncated, D143A, DHFR fusion (Arabidopsis thaliana)
Setting: methotrexate growth selection, single substitutions
Parent: PYL1, truncated, DHFR fusion (Arabidopsis thaliana); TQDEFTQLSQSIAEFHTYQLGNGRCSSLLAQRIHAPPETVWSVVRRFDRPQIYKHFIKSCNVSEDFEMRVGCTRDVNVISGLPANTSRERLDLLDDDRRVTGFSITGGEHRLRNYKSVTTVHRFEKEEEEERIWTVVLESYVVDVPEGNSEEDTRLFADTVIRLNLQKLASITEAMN; partner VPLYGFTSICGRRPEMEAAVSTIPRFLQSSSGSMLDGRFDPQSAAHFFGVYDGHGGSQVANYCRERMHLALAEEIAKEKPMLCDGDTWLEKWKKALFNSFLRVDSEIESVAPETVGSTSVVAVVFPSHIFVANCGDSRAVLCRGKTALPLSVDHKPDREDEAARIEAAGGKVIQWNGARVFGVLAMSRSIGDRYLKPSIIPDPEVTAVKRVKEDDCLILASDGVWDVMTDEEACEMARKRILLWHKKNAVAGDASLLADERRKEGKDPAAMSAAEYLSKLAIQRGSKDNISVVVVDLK
T135P: 2.17%
S104C: 2.15%
T1V: 45.1%
S87N: 2.24%
N165L: 6.81%
R155N: -1.12%
L82S: 6.88%
S150F: -12.9%
E109I: -3.73%
P83V: 2.07%
E139L: 1.17%
N77R: 54.9%
N61I: 52.2%
R74M: 10.4%
R99H: 27.7%
